Assay results from different studies.
Each numbered part is a random draw from the data of one study; scales do not carry over between parts. Changes are numbered by the printed parent chain.

Series 1 — target: CCND2, cyclin fold, Cln2 fusion (human); technique: yeast growth competition, sequencing; sample: yeast; notes: weak parent motif; baseline: not given; direction: higher = stronger binding
Starting sequence: viral docking peptide; CKVKRKLFGSENI; partner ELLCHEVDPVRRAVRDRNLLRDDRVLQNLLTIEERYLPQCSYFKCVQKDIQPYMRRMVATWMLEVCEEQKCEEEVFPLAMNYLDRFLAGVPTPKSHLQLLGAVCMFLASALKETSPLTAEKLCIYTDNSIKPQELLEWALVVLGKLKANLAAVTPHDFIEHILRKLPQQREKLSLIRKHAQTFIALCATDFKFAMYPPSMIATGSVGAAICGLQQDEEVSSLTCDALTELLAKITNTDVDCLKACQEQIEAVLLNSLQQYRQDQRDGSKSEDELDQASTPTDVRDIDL
| Change | normalised enrichment score |
| --- | --- |
| CKVKRKAFGSENI [L7A] | 0.146 |
| CKVKRKLFASENI [G9A] | 0.249 |
| CKVKRKLFGSEAI [N12A] | 0.345 |
| CKVKRKLLGSENI [F8L] | -0.037 |
| CKVKRKLFGSENA [I13A] | 0.324 |
| CKVARKLFGSENI [K4A] | 0.295 |
| AKVKRKLFGSENI [C1A] | 0.113 |
| CAVKRKLFGSENI [K2A] | 0.265 |

Series 2 — target: tungstate, free oxyanion; technique: microfluidic competitive inhibition; sample: in vitro, cell-free expressed; tested at: not given; direction: lower = stronger binding
Notes: derived from inhibition constants, unchanged parent 2230 nM
Starting sequence: PafA, mature enzyme, eGFP fusion (Elizabethkingia meningoseptica, UniProt Q9KJX5); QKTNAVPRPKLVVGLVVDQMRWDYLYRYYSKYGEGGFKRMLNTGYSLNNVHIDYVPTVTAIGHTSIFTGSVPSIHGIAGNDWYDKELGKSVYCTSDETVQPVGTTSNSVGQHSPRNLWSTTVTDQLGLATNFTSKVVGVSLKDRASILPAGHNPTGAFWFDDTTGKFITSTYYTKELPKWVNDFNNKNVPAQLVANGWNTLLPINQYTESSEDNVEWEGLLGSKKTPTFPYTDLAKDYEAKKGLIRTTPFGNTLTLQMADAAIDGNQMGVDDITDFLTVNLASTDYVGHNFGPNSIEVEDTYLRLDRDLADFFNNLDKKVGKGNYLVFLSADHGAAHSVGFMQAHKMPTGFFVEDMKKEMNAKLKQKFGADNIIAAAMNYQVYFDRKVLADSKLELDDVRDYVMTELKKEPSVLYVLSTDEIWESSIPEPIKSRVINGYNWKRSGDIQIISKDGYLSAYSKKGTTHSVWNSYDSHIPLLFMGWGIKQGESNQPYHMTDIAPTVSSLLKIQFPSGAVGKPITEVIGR
| Change | oxyanion analog dissociation constant |
| --- | --- |
| K179V | 2520 nM |
| D162G | 12200 nM |
| Q19V | 3270 nM |
| D237G | 1240 nM |
| A259V | 2440 nM |
| L47G | 2040 nM |
| D420G | 2440 nM |
| T171V | 2030 nM |

Other studies, line by line — tested at: 10 µM
| SMILES | target | observed | mode | technique | notes | inhibition |
| --- | --- | --- | --- | --- | --- | --- |
| CC(CN1CC(=O)NC(=O)C1)N1CC(=O)NC(=O)C1 (stereo not shown) | chymotrypsin | enzyme activity | inhibitor | – | with DTT | -0.9% |
| Cn1cncc1[C@](O)(COc1ccc(C#N)cc1-c1ccc(OC(F)(F)F)cc1)c1ccc(C#N)cc1 | Sodium-dependent serotonin transporter (SLC6A4, Homo sapiens, UniProt P31645) | binding | – | radioligand binding | – | 1.25% |
| Cc1cc(-c2ccc(/C=C3/SC(Nc4ccc(Cl)c(C(=O)O)c4)=NC3=O)o2)c([N+](=O)[O-])cc1C | chymotrypsin | enzyme activity | inhibitor | – | with DTT | 3.3% |

For quick reference, copied from above (series 1):
| Change | normalised enrichment score |
| --- | --- |
| CKVKRKLFGSEAI [N12A] | 0.345 |
